Results from different studies.
Lines come from different studies, so protocols differ. Numbers after ± are the reported error.
B1: UGT1A9 (Homo sapiens, UniProt O60656); chain GKLLVVPMDGSHWFTMRSVVEKLILRGHEVVVVMPEVSWQLGRSLNCTVKTYSTSYTLEDLDREFKAFAHAQWKAQVRSIYSLLMGSYNDIFDLFFSNCRSLFKDKKLVEYLKESSFDAVFLDPFDNCGLIVAKYFSLPSVVFARGILCHYLEEGAQCPAPLSYVPRILLGFSDAMTFKERVRNHIMHLEEHLLCHRFFKNALEIASEILQTPVTEYDLYSHTSIWLLRTDFVLDYPKPVMPNMIFIGGINCHQGKPLPMEFEAYINASGEHGIVVFSLGSMVSEIPEKKAMAIADALGKIPQTVLWRYTGTRPSNLANNTILVKWLPQNDLLGHPMTRAFITHAGSHGVYESICNGVPMVMMPLFGDQMDNAKRMETKGAGVTLNVLEMTSEDLENALKAVINDKSYKENIMRLSSLHKDRPVEPLDLAVFWVEFVMRHKGAPHLRPAAHDLTWYQYHSLDVIGFLLAVVLTVAFITFKCCAYGYRKCLGKKGRVKKAHKSKTH

| Substance | target or system | assay | system | setting | measurement | result |
| --- | --- | --- | --- | --- | --- | --- |
| CC1(C)SC2C(NC(=O)C(NC(=O)C3=C(O)C4CCCN4C3=O)c3ccccc3)C(=O)N2C1C(=O)O (stereo not drawn) | Escherichia coli | broth microdilution | BW25113, Mueller-Hinton broth | with: CCCP 50 µg/mL | MIC | 25 µg/mL |
| SQSVLYS |  |  | peptide, human polyclonal IgM RF ABR | concentration not given, 5 µg/mL mAb II-481 coated, with: RF at 50% max binding concentration | inhibition | 6% |
| COc1ccc(-c2nc3cc(-c4nc5cc(N6CCN(C)CC6)ccc5[nH]4)ccc3[nH]2)cc1 | Nakaseomyces glabratus | fungal growth | ATCC 2001 | MIC-0 endpoint | MIC | 3.9 to 7.8 µg/mL |
| GACATACTCT | Salmonella enterica Typhimurium | bacterial growth, broth microdilution | peptide, SL1344, MHB | 24 h, 37 °C | MIC | 5 µM |
| C=C(C)[C@@H]1CC[C@]2(C)CC[C@]3(C)[C@H](CC[C@@H]4[C@@]5(C)CC[C@H](O)C(C)(C)[C@@H]5CC[C@]43C)[C@@H]12 | Nakaseomyces glabratus | broth microdilution | clinical isolate | 48 h, 37 °C | MIC | 500 µg/mL |
| CC1(C)SC2C(NC(=O)C(NC(=O)C3=C(O)C(Cc4ccsc4)NC3=O)c3ccccc3)C(=O)N2C1C(=O)O (stereo not drawn) | Escherichia coli | broth microdilution | BW25113, Mueller-Hinton broth | with: 2,2'-bipyridyl 30 µg/mL | MIC | 25 µg/mL |
| Cc1ccc(C(C)C)cc1.Cc1ccc(C(C)C)cc1.[Cl][Ru][Cl].[Cl][Ru][Cl] | Proteus vulgaris | broth microdilution | ATCC 8427 | 24 to 48 h, 37 °C | MIC | > 1000 µg/mL |
| B1 (UGT1A9) | CN1CC[C@H](c2c(O)cc(O)c3c(=O)cc(-c4ccccc4Cl)oc23)[C@H](O)C1 | steady-state kinetics |  | pH 7.4, 37 °C | Vmax/Km | 5.8 µL/min/mg |
| RXRRXRRXRRXRXB (PNA conjugate) | Streptococcus pyogenes | broth microdilution | peptide | 0.02% acetic acid, 0.4% BSA | MIC | 125 µM |
| CC1(C)S[C@@H]2[C@H](NC(=O)[C@H](N)c3ccccc3)C(=O)N2[C@H]1C(=O)O | Porphyromonas gingivalis | serial dilution | ATCC 33277 | 24 h, 37 °C | MIC | 7.5 ± 0.3 µg/mL |
| CC1(C)SC2C(NC(=O)C(NC(=O)C3=C(O)C(Cc4ccco4)NC3=O)c3ccccc3)C(=O)N2C1C(=O)O (stereo not drawn) | Escherichia coli | broth microdilution | BW25113, Mueller-Hinton broth | with: CCCP 50 µg/mL | MIC | 1.56 µg/mL |
| CTCATACTGA | Salmonella enterica Typhimurium | bacterial growth, broth microdilution | peptide, SL1344, MHB | 24 h, 37 °C | MIC | 5 µM |
| CC1(C)CC[C@]2(C(=O)O)CC[C@]3(C)C(=CC[C@@H]4[C@@]5(C)CC[C@H](O)C(C)(C)[C@@H]5CC[C@]43C)[C@@H]2C1 | Nakaseomyces glabratus | broth microdilution | clinical isolate | 48 h, 37 °C | MIC | 500 µg/mL |
| CC1NC(=O)C(C(=O)NC(C(=O)NC2C(=O)N3C2SC(C)(C)C3C(=O)O)c2ccccc2)=C1O (stereo not drawn) | Escherichia coli | broth microdilution | BW25113, Mueller-Hinton broth | with: CCCP 50 µg/mL | MIC | 12.5 µg/mL |
| LIYWAST |  |  | peptide, human polyclonal IgM RF SOR | concentration not given, 5 µg/mL mAb II-481 coated, with: RF at 50% max binding concentration | inhibition | 14% |

For quick reference, copied from above:
| Substance | target or system | assay | system | setting | measurement | result |
| --- | --- | --- | --- | --- | --- | --- |
| C=C(C)[C@@H]1CC[C@]2(C)CC[C@]3(C)[C@H](CC[C@@H]4[C@@]5(C)CC[C@H](O)C(C)(C)[C@@H]5CC[C@]43C)[C@@H]12 | Nakaseomyces glabratus | broth microdilution | clinical isolate | 48 h, 37 °C | MIC | 500 µg/mL |
